Published values pooled from the literature.
Numbered parts are unrelated; each lists some results of a single study.

Series 1
Target: Sal-like protein 4, full length isoform A (SALL4, Homo sapiens, UniProt Q9UJQ4, residues 1-1053)
UniProt Q9UJQ4, sequence (whole entry, looked up): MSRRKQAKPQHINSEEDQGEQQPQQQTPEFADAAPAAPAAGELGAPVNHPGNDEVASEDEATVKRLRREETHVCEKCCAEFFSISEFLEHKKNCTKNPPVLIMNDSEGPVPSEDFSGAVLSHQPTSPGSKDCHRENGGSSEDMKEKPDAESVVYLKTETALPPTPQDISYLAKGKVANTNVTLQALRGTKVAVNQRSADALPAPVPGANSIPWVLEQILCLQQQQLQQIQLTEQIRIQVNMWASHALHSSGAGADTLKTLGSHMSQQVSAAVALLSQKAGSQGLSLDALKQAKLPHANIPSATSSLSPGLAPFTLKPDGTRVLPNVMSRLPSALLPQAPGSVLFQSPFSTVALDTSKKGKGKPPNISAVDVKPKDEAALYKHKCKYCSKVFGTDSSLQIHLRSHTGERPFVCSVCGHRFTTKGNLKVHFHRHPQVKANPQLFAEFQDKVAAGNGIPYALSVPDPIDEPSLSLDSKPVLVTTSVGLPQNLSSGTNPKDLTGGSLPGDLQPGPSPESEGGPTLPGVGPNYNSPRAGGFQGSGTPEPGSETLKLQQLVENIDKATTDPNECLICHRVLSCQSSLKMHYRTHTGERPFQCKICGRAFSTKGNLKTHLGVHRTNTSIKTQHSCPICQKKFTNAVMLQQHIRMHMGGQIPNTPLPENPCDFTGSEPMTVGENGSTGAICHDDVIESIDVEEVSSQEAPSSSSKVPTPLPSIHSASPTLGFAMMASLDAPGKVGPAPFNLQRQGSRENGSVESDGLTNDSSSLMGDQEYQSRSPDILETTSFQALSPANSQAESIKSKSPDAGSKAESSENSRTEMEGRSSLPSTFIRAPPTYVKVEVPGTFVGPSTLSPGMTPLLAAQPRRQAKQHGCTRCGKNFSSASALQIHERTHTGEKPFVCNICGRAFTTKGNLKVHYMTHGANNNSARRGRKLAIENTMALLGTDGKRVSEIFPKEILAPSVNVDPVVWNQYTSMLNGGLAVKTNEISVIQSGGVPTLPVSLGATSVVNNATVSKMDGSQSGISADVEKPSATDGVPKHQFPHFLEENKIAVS
Method: universal PBM
Form: double-stranded DNA, one strand shown
Matrix: in vitro
Concentration: 600 nM
Notes: 8-mer, flanks averaged, mean of replicates
Reading: higher = stronger binding
Measurement: E-score
CCGAAGCG: -0.291
AGTGTACA: 0.109
GTGCCCCA: -0.28
ACCTGCGC: -0.196
GTGCAGGA: -0.11
CGGTTGTC: -0.157
CCACCGCG: -0.332
CCTTGACA: -0.0793
TAAAACTA: 0.285
CGGGTGCA: -0.158
AACAACGA: 0.14
AATAGGGA: -0.0408
CGAAGCAA: 0.157
CACGACAA: 0.0179
ACAACGTA: 0.0988
ATTTGTAA: 0.354
ACGACATG: 0.0127

Series 2
Target: RING finger protein unkempt homolog, zinc fingers 1-6, GST-SBP tag (UNK, Homo sapiens, UniProt Q9C0B0, residues 30-357)
UniProt Q9C0B0, sequence (30-357, looked up): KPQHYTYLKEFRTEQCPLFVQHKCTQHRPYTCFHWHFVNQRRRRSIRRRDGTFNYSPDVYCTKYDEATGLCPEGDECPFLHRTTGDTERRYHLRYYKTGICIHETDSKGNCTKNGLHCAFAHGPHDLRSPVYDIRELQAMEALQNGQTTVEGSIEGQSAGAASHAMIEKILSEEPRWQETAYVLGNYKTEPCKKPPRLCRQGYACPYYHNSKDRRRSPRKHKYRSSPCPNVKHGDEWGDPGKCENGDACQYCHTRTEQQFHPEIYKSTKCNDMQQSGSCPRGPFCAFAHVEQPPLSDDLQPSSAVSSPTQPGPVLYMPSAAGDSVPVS
Method: RNA Bind-n-Seq
Form: RNA
Matrix: in vitro
Concentration: not given
Notes: RNA with constant flanks, human-mouse chimeric sites, ends assumed
Reference: input RNA pool
Reading: higher = stronger binding
Measurement: bound/input enrichment
Constant ends, left off below: GGGAGUUCUACAGUCCGACGAUC … CAACAGAGGAUUGAGCAUCA
CACAGAGCAGCACCUACCCCCUCCUCCUUUCCACACCUGCAAACUCUUUUACUUGGGCUGAAUAUUUAGUGUUAAUUCAUCUCAGCUUUGAGGGCUCCCUGUGGCAAUUCCCGGAUUAAA: 1.01 ratio
GACUUGGGACCGUCCUGGGCUAGUACAAAUAGCGGCAGUGGAGGCUCGAGAGGAAAGUUUGUUAGUGGAGGCAGUGGUAGAGGCCGUCAUGUACGGUCCUUUACUCGUAAAAAUCCUUCU: 0.297 ratio
AAAUCGUGUGUGUCAAAUAUUGAAAGUGCUUUAUCUACACUCCAGUAUGUAAGCAGUAUAGUAGUUUCUUUAGAGAAUAGGUCUGCCAUUGUAAAGUACAAUGCAAGCUUAGUCACUCCA: 2.13 ratio
UCUGAGGUACCACUGAAGAGACCUUAAAAGAAUCAUUUUGACGGCUCGUUCGUGCAAGAAUAGUCACUGAUCGGGAAACUGGUUCUUCCAAAGGGUUUGGUUUUGUAGACUUUAAUAGUG: 0.672 ratio
AAAGAACUUGCUGAUGAUGAAGAUGAGGACAGUGAUGAUGAUGUUGAACCCAUUUCUGAAUUUCGAUUUGUGCCCAGUGAUAAGUCAGCAUUGGAGGCGAUGUUCACAGCAAUGUGUGAG: 0.326 ratio
AGCACAACCCCAGCAAAGCUAAGAAAUCCUUGUACAAGUGAACAGAACUGCACCAGCCCAUUUAGCUACAAAAAUGUGCUUAGUCUUACUGACAGAGGAGAAGUAUUCAAUGAACUUGUU: 0.757 ratio
GGAAGUACAAUGAUGGAGAUUGAUGGUGACAAAGGCAAGCAGGGCGGGCCCACCUACUACAUAGACACUAAUGCUCUGCGUGUUCCGAGGGAGAACAUGGAGGCCAUCUCACCACUCAAG: 0.318 ratio
GCAGGAUCUUCUAAAUACCAGUGGGACAUUAUGAAAUCCCUUGGGCUCUCUGAUGACGACAUAGUGAAGUUUUCUGAAGCAGAGCACUGGCUUGAUUAUUUCCCACCACUGGCCGUUCAG: 0.136 ratio
GGGACUGAUUCAUCCCAAGGACAGGCAACCCCAUUUGAUGCCUGGACUGAUGACAGUAUGUUAGGGCCUAGUCAAAAUGUUGAAGCUGAGUCAAUUCAGGAUGCCAUGAGUAUGGAAGAG: 0.594 ratio
AGAAAGCAAAACUUGGAACGAUUUAAGAAAGGAGAUGUAAGAUUCUUGAUUUGCACAGAUGUAGCUGCUAGAGGGAUUGAUAUCCAUGGUGUUCCUUAUGUGAUCAACGUCACCCUGCCU: 0.285 ratio
UCCCAAAUCCAGCAGCUAGAAGGAGCCAAUUGUUUGUCACUCCACACACAGGGAAGGCGAUAACAUUGUACAUUGGUUUACAUUUUUUCCCCCUGUGGAUUUUUCUAGAGGUCAUAGUGC: 0.39 ratio

Series 3
Target: Ras GTPase-activating protein-binding protein 1, full length (G3BP1, Homo sapiens, UniProt Q13283)
UniProt Q13283, sequence (whole entry, looked up): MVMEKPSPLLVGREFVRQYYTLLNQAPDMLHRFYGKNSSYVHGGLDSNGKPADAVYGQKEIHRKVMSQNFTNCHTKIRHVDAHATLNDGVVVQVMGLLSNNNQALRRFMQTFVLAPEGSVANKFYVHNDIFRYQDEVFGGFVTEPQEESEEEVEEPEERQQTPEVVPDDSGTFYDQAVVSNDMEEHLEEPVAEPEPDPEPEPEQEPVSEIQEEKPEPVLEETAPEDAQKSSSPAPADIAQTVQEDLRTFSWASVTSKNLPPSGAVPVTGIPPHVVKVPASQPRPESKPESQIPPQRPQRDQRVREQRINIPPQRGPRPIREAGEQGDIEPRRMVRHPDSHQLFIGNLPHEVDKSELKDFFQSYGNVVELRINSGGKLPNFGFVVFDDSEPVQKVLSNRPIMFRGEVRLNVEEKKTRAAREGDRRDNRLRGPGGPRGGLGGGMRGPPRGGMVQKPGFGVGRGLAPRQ
Method: RNA Bind-n-Seq
Form: RNA
Matrix: in vitro
Concentration: 200 nM
Notes: whole 134-nt RNA, ends assumed
Together with: 150 mM LiCl
Reference: input library
Reading: higher = stronger binding
Measurement: log2 enrichment
Library: 7-deaza-guanosine replaces G
Constant ends, left off below: GGGAGUUCUACAGUCCGACGAUC … UGGAAUUCUCGGGUGUCAAGG
AGUCCUGUGCUACACAUCGUAUGUACCGAAUCGGGGUUUUUGGGGAAAGGGGUGGGGAAAGUAUUAUGUUACGCCGUUCGGAUCUGCACU: -0.514
CCUGUGCUACACAUCGUAUGUACCGAAUCGGGAAAAAAGGAAAAAAGGGGAAAAAAGGGGAAAGUAUUAUGUUACGCCGUUCGGAUCUGC: 0.249
AGUCCUGUGCUACACAUCGUAUGUACCGAAUCGGGGUUUUGGGGUUUUGGGUUUUGGAAAGUAUUAUGUUACGCCGUUCGGAUCUGCACU: -0.292
GCAGGAAGUAAAAACAAAUGGAAAUGCUUCGGAUAGUGGCAGGGGUGGGGGCUGCUAAGGAAAGGGUGGGAUGGGAGUGGGUAAAGAGUU: 0.171
ACCAUGCAGGUGGGCAUCUUUGGGAAGUGGGGCAAGGGAAAGAUAGGGAGGGGGGUAACACUUUGGGAACAGGUGGUCCCAGGUCGUUUC: 0.399
AGUCCUGUGCUACACAUCGUAUGUACCGAAUCGGGUUUUUGGUUUUUGGUUUUUGGGAAAGUAUUAUGUUACGCCGUUCGGAUCUGCACU: -1.15
AGUCCUGUGCUACACAUCGUAUGUACCGAAUCGGGGUUUUGGGUUUUGGGGUUUUGGGAAAGUAUUAUGUUACGCCGUUCGGAUCUGCAC: 0.136
ACUGAUGAGAGCCUGAGGAGCCAUUUUGAGCAAUGGGGAACGCUCACGGACUGUGUGGUAAGAUUUGGAAGGGACAAAGCAGUAAAACAG: 0.321
CAAGUCCUGUGCUACACAUCGUAUGUACCGAAUCGGGGCCCGGCCCGGCCCGGGGAAAGUAUUAUGUUACGCCGUUCGGAUCUGCACUUC: -0.687
CUCAAGUCCUGUGCUACACAUCGUAUGUACCGAAUCGGUUUUUGGUGGAAAGGAAAGUAUUAUGUUACGCCGUUCGGAUCUGCACUUCCA: 0.157
AGUCCUGUGCUACACAUCGUAUGUACCGAAUCGGGUUUGGGUUUUUUUGGGAAAGGGAAAGUAUUAUGUUACGCCGUUCGGAUCUGCACU: -0.321

Series 4
Target: RNA binding protein fox-1 homolog 2, RRM domain, GST-SBP tag (RBFOX2, Homo sapiens, UniProt O43251-10, residues 100-194)
Method: RNA Bind-n-Seq
Form: RNA
Matrix: in vitro
Concentration: 365 nM
Notes: natural RNA segment, single round, ends assumed
Reference: no-protein control
Reading: higher = stronger binding
Measurement: RBNS enrichment (R)
Constant ends, left off below: GGGAGUUCUACAGUCCGACGAUC … UGGAAUUCUCGGGUGCCAA
Residues (chain): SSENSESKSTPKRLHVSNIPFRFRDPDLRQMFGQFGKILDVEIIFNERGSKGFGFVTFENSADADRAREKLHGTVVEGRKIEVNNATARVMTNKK
GUUUCUGAGUCUGUGUUGCAGCCUCUGACACGUGGCUCACCGCUGUCAUUUGGGGGAUGGAAUGAACAGUCACUGUUCUAUAGCAUCCUCCUGUGCUCUUACCUAAGGAA: 0.223
UCGUUAUCCUCUGCUGUCUCUCUGGCAUCCUAUGAAUCAGAUCAAGCCCAUGCUGUUGUUGGUUUUUAAGGUUUCUUUCAAUAAUAGGCUAAGGAAAGACAUGUUUUUCU: 0.291
GAAGAGCCAGGUAGCACCUGAAAACGCUGCACGUGUGUUUGUGAAACCUGUAGUGAAGUAGACUUGGCCGUCCCUGGACAGUGAGGUCAGAUGUGAAUACAUAUUGUAAG: 3.29
ACCACAGGCAAUUACUAGCCCUAGUUGAUAGGUGAGGUGGGUGAAGAAGGCUGGAGGUGACAUGUCCGAGGUCACACAACAAAGCAGCAUGCAGGAACUAGAAACACAUC: 8.67
CUCAGGAGGCAGGGUCAGGAGGAUUACAGGUUCAAAGCCAGUCUGGUCUAUAUUAGAAAAAGAAAACUGUCCUUUUGCUAAAGAAAAAUUAAAUGAAUUUUUAAGGCUGA: 0.601
UUUAUUUUUAGGUUAUUUUCUUGGAAGGUUGGGAAAAGAUGUUUGUUUUAACAGGUCAUGUACUACGUUGUUGUUUUCAUUUCUGUUAUAAGUAAAACUAAAAGCACAGA: 0.646
CGUGCAGGUGGUGGUGGAGCUGAUCCUGCAGGCGCGACCCUGGGACCAGGUCCUGAAUGCCCUGAAGCAUCACUUCCCAGCAGAGUCCAGAACAGUAAGUACCACUGGAC: 0.361
UGGGUGUUGCUGCCCUGCUUGUCAGCUCUGCAAAUGAGCGCUGCUCCCCAGCUUGCGCAGAGACGUGUGCGUCCCACGUCCCUUGCCGUGCUCUCCCUUUUGGUAGGUGU: 0.355
UGGGCCAUUCUGAAGAAUCACAAAGACAGAAGACCUCUGGCUAAGAGCAGGCUUCAAACGAUGUGAAAUAAGCUGAGAUGGCUACAUGAUAUUCUUCAUCUCAUCCUGUG: 0.304
AUUAUGGUUUUUAGUUAUGACAUCACAAUGUGUCAAGAGUGGAACAAUAAACGUUUCCCUUGUGUUCACUGAGGUUUGCACACAUGAACGUCUGUGUUCUGGAUCUUGGG: 0.417
GGAAACAUCCUCUCACUUGCAUUCUUUUAACUUAAAACUAUUUAAGAACUGAUGUUCCGAUUAUUGUAUAUAUUUUUCUAAAAACCAAAUAAAGCUACCUAUGAAAAUGA: 0.929
CUUCAAGAAAAACUAAAAUGAUUUAGUUGGAGCAAAGCUUUAAGUGUGUUGGUGUGCUUCUGUGUGGCUGUCCCUGUUGCUAGCAGAUCACAGUGAUUUGGUCCCAUUGG: 0.536

Repeated from above (series 3):
GCAGGAAGUAAAAACAAAUGGAAAUGCUUCGGAUAGUGGCAGGGGUGGGGGCUGCUAAGGAAAGGGUGGGAUGGGAGUGGGUAAAGAGUU: 0.171
ACCAUGCAGGUGGGCAUCUUUGGGAAGUGGGGCAAGGGAAAGAUAGGGAGGGGGGUAACACUUUGGGAACAGGUGGUCCCAGGUCGUUUC: 0.399
AGUCCUGUGCUACACAUCGUAUGUACCGAAUCGGGUUUUUGGUUUUUGGUUUUUGGGAAAGUAUUAUGUUACGCCGUUCGGAUCUGCACU: -1.15
